Assay results from different studies.
“And” joins repeats or separate records; there may be more than shown. Numbers after ± are the reported error.
Sequence of UniProt Q9Y2K6 (whole entry, looked up): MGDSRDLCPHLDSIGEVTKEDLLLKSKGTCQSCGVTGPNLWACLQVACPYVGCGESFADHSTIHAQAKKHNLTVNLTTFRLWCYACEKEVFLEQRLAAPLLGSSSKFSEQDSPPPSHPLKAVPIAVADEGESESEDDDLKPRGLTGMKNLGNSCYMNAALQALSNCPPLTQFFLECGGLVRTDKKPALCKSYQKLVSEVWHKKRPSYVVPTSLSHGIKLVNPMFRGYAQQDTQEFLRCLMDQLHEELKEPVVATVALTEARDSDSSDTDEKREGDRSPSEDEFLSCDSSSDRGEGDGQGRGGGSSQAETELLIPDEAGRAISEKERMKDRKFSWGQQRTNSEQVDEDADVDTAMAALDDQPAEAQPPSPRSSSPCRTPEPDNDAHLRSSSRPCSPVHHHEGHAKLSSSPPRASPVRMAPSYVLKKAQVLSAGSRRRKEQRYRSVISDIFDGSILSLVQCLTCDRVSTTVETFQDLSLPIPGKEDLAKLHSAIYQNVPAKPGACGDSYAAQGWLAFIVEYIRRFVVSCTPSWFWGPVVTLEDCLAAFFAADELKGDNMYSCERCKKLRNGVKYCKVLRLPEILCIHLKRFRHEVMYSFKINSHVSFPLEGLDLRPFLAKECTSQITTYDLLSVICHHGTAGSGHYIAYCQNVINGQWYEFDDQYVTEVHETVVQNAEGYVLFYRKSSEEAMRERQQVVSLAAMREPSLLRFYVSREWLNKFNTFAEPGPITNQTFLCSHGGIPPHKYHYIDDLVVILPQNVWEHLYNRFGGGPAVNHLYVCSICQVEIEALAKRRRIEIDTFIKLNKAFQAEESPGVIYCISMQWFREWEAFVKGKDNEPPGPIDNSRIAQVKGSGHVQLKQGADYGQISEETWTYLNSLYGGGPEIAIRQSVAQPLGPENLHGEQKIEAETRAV
Sequence of UniProt Q9UNQ0 (whole entry, looked up): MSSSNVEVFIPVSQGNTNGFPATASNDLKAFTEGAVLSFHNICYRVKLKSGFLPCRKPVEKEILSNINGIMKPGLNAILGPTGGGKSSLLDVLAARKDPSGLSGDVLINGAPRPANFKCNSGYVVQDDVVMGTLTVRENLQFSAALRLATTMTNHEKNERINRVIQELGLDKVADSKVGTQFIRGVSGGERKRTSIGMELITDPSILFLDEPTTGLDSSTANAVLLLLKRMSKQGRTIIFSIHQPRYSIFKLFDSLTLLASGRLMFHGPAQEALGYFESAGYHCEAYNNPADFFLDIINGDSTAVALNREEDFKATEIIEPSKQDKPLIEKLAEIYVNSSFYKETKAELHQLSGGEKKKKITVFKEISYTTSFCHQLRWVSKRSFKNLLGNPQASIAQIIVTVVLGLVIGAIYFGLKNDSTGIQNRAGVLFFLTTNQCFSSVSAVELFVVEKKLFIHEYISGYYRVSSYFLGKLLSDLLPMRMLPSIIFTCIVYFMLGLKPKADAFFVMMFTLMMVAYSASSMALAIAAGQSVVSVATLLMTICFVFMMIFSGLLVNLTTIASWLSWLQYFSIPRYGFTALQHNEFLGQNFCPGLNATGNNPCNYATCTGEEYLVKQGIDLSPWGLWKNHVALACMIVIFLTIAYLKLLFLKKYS

`C[C@H]1OC[C@@H](c2ccc(-c3ccccn3)cc2)N[C@@H]1c1ccc(F)cc1Cl` has a logD of > 4.7 (shake-flask, 1-octanol/buffer; pH 7.4).
For `CCOc1c([C@H](C)n2nc(C)c3c(N)ncnc32)cc(Cl)c(F)c1[C@@H]1CNC(=O)C1`, “observations ΔQTcF >30 ≤60 ms” read 0% (ECG; previously treated B-cell malignancy patients; oral, 15 mg once daily, baseline QTcF ≤450 ms).
`[O]=[Co].[O]=[Co][O][Co]=[O]` has a cobalt concentration of 258 µg/g (rat, male, faeces, 24-h collection; oral gavage, single, 300 mg/kg (220 mg Co/kg), day 2, vehicle 0.5% HPMC; reference: vehicle control subtracted).
For `CCn1cc(C(=O)N2CCOCC2)c(=O)c2cc(NC3Cc4ccccc4C3)cnc21`, the half-life was 4.12 h (human, fed; oral tablet, 300 mg single dose, arithmetic mean).
For `COc1cc2c3cc1Oc1c(OC)c(OC)cc4c1[C@@H](Cc1ccc(O)c(c1)Oc1ccc(cc1)C[C@@H]3N(C)CC2)N(C)CC4`, the remaining compound was 96% (mouse plasma, K3EDTA; 2 h, 37 °C).
`O=C1CC[C@H](N2Cc3cc(N4CCN(CC5CCN(c6ccc([C@@H]7c8ccc(O)cc8CC[C@@H]7c7ccccc7)cc6)CC5)CC4)ccc3C2=O)C(=O)N1` — result for “total dose excreted”: 95.7% (radiolabelled mass balance; Sprague-Dawley rat, male, urine and feces; oral, 20 mg/kg, up to 168 h).
Under “urinary potassium excretion change”, `Cc1ccc([C@@H]2O[C@H](CO)[C@@H](O)[C@H](O)[C@H]2O)cc1Cc1ccc(-c2ccc(F)cc2)s1` is recorded as -0.424 mEq (Japanese type 2 diabetes patients; 200 mg, day 17, 24 h urine collection; reference: baseline).
With `CCN1CCN(Cc2ccc(NC(=O)c3ccc(C)c(NC(=O)c4cncc(-c5cccs5)c4)c3)cc2C(F)(F)F)CC1` the plasma concentration was 9 ng/mL and 20 ng/mL and 8 ng/mL (LC-MS/MS; C57BL/6 mouse, plasma; intraperitoneal, 30 mg/kg single dose, 24 h).
For `COc1cccc(-c2cccc(Nc3nccc(NC4CCCCC4)n3)c2)c1`, the efflux ratio was 10.3 (MDCKII-WT cells; 10 µM, pH 7.4; reference: Papp B-A over A-B).
For `CC(=O)N(C)C1CCN(c2cc(F)cc(NC(=O)c3cc4c(F)ccc(C)c4[nH]3)c2)C1` (stereo not drawn), the MRT(0-inf) was 2.9 h (CD1 mouse; oral, 50 mg/kg).
`NCCONC(=O)[C@@H]1CC[C@@H]2CN1C(=O)N2OS(=O)(=O)O`: “adverse event incidence” 0% (measured: infusion-related reaction; healthy Chinese men; intravenous, 2 g, treatment-emergent).
`Cc1cc(-c2nccc3c2ccn3CC(=O)Nc2ccc(-c3cnccn3)cn2)ccn1`: “skin disorder TEAEs” 0% (healthy human volunteers; oral, 5 mg once daily, 14 days, multiple ascending dose).
`C[C@@H](N)C1CCN(S(=O)(=O)c2cccc3cnccc23)CC1` — result for “participants with photophobia”: 0% (healthy volunteers; 250 mg, fasted).
The Kd of `O=C(O)Cc1nc2ccccc2o1` is reported as 403 µM (Ubiquitin carboxyl-terminal hydrolase 20, ZnF-UBD domain (USP20, Homo sapiens, UniProt Q9Y2K6)).
`COc1ncc(-c2nc3c(n2C(C)C)[C@H](c2ccc(Cl)cc2)N(c2cc(Cl)cn(C)c2=O)C3=O)c(OC)n1` gave a median half-life of 18.5 h (human patients, plasma; oral, 25 mg, low-dose arm, cycle 2 day 1).
The AUC0-tz ratio of `C=CC(=O)NC1CCN(c2ncc3ncnc(Nc4ccc(Oc5ccc6c(c5)ncn6C)c(C)c4)c3n2)CC1` is reported as 127% (human, male, plasma; oral, 240 mg, adjusted geometric means; reference: fed over fasted).
`CCCCCN1C[C@H](O)[C@@H](O)[C@H](O)[C@@H]1CO` — result for “geometric mean brain concentration”: 271 ng/g (LC-MS/MS; Hexb-/- mice, total, brain; 300 mg/kg/day).
With `CCOc1cc(-c2c(C)[nH]c3cc(OC)c(Cl)cc3c2=O)ccc1F` the logD was 2.9 (chromatographic; pH 7.4).
`CC[C@H](C)[C@H](NC(=O)[C@H](Cc1ccccc1)NC(=O)[C@H](CCC(=O)O)NC(=O)[C@H](CCCCNC(=O)COCCOCCNC(=O)COCCOCCNC(=O)CC[C@H](NC(=O)CCCCCCCCCCCCCCCCC(=O)O)C(=O)O)NC(=O)[C@H](C)NC(=O)[C@H](C)NC(=O)[C@H](CCC(N)=O)NC(=O)CNC(=O)[C@H](CCC(=O)O)NC(=O)[C@H](CC(C)C)NC(=O)[C@H](Cc1ccc(O)cc1)NC(=O)[C@H](CO)NC(=O)[C@H](CO)NC(=O)[C@@H](NC(=O)[C@H](CC(=O)O)NC(=O)[C@H](CO)NC(=O)[C@@H](NC(=O)[C@H](Cc1ccccc1)NC(=O)[C@@H](NC(=O)CNC(=O)[C@H](CCC(=O)O)NC(=O)C(C)(C)NC(=O)[C@@H](N)Cc1cnc[nH]1)[C@@H](C)O)[C@@H](C)O)C(C)C)C(=O)N[C@@H](C)C(=O)N[C@@H](Cc1c[nH]c2ccccc12)C(=O)N[C@@H](CC(C)C)C(=O)N[C@H](C(=O)N[C@@H](CCCNC(=N)N)C(=O)NCC(=O)N[C@@H](CCCNC(=N)N)C(=O)NCC(=O)O)C(C)C` — result for “QTcF change from baseline”: -2.5 ms (12-lead Holter ECG; healthy humans; subcutaneous, 1.5 mg once weekly, 42 h, steady state; reference: placebo).
`Cc1nc(C)c(-c2ccnc(Nc3cccc([N+](=O)[O-])c3)n2)s1` has a logD of 4.34 (octanol/buffer; 67 µM, pH 7.4).
`O=C(O)CCC(=O)O.[2H]C([2H])([2H])Oc1cc(C)c2[nH]ccc2c1CN1CC[C@@H](C2CC2)C[C@H]1c1ccc(C(=O)O)cc1` has a TEAE hyponatremia of 0% (healthy Chinese subjects; 200 mg, single ascending dose).
Under “treatment-related decreased appetite”, `C=CCN1CC(=O)N2[C@@H](Cc3ccc(O)cc3F)C(=O)N(Cc3cccc(N4CC(N5CCN(CC)CC5)C4)n3)C[C@@H]2N1C(=O)NCc1ccccc1` is recorded as 0% (advanced solid tumour patients; oral, 10 mg twice daily, any grade, dose-escalation).
`CNCc1ccc(-c2[nH]c3cc(F)cc4c3c2CCNC4=O)cc1` — result for “patients with adverse event”: 0% (measured: Diarrhea; human patients; oral, 600 mg twice daily, grade 3).
`C[C@]12CCCN1CC1=NNC(=O)c3cc(F)cc4[nH]c2c1c34` gave an uptake rate of 8.91 ± 3.22 pmol/min/mg (ABCG2 (Homo sapiens, UniProt Q9UNQ0); substrate; membrane vesicles; 30 µM, with: AMP).
With `Cc1nc(C)c(-c2ccnc(Nc3ccc(Cl)cc3)n2)s1` the logD was 5.1 (octanol/buffer; 67 µM, pH 7.4).
`Cc1c([C@@H]2COC[C@H](c3cc(Cl)cc(Cl)c3)N2)cnn1-c1ccccc1` has a logD of > 4 (shake-flask, 1-octanol/buffer; pH 7.4).
For `Cc1cc(Nc2cc3ncccc3c(N[C@@H]3C[C@H]4CC[C@@H](C3)N4CCC#N)n2)n[nH]1`, “skin subcutaneous disorders incidence” read 0% (healthy human subjects; oral, 10 mg, 2 weeks, single ascending dose).
`Cc1cc(C(=O)NC(C)(C)COc2cccc3c2C(N)=NS(=O)(=O)N3)cc(C)n1` has a cytotoxicity of 3% (human peripheral blood lymphocytes; CBPI, preliminary test; 0.2 µg/mL, 4 h; reference: vehicle control).
`CN(CCC#N)C1CCN(C(=O)Cn2cc(NC(=O)c3cnn4cccnc34)c(-c3cc(Cl)ccc3OC(F)F)n2)CC1`: “LDL cholesterol change” -22.4 mg/dL (healthy human; 10 mg once daily, day 42; reference: baseline).
`CC(C)(C(=O)N1CCOc2c(C#N)cncc2C1)C(F)F` — result for “subjects with adverse event”: 0% (measured: ALT increased; human; oral, 10 mg once daily, 14 days, multiple ascending dose).
`NC(N)=NCCC[C@@H](N)C(=O)N[C@@H](CCCN=C(N)N)C(=O)N1CCC[C@H]1C(=O)N1C[C@H](O)C[C@H]1C(=O)NCC(=O)N[C@@H](Cc1cccs1)C(=O)N[C@@H](CO)C(=O)N1Cc2ccccc2C[C@@H]1C(=O)N1[C@H](C(=O)N[C@@H](CCCN=C(N)N)C(=O)O)C[C@@H]2CCCC[C@@H]21`: “absorption rate constant (ka)” 3.25 h⁻¹ (popPK base model typical value; human; subcutaneous).
`O=c1c2cc(Cl)c(CO)cc2[nH]c(=S)n1Cc1cccnc1` has an oral bioavailability of 0.59% (mouse; oral, 50 mg/kg).
`FC(F)(F)c1ccc([C@H]2COC[C@@H](C3CCCCC3)N2)cc1` gave a logD of > 4.7 (shake-flask, 1-octanol/buffer; pH 7.4).
With `Cc1ccc(N(C)C(=O)/C=C/c2ccco2)cc1` the licking latency was 15.1 ± 0.4 s (hot plate test; mice; oral, 30 mg/kg daily for 7 days, 45 min, day 8).
The logD of `CCOC(=O)N1C[C@@H](C2CCCC2)N[C@@H](c2ccc(C(F)(F)F)cc2)C1` is reported as > 4.7 (shake-flask, 1-octanol/buffer; pH 7.4).
The intact complex of `c1ccc(CN2CCCN3CCN(Cc4ccccc4)CCCN(CC2)Cc2cccc(n2)C3)cc1` is reported as 93% (64Cu complex; 24 h, pH 7.4, 37 °C, with: DOTA excess).
The logD of `COC(=O)c1ccccc1Oc1nc(NC(C)C)nc(NC(C)C)n1` is reported as 3.59 (octanol/buffer; pH 7.4).
Under “processed sample stability”, `C/C(=N\c1ccc(O)cc1)c1cc2ccccc2n1C` is recorded as “stable” (plasma; 24 h, 10 °C autosampler).
For `C=CC(=O)Nc1cc(Nc2nccc(-c3cn(C4CC4)c4ccccc34)n2)c(OC)cc1N(C)CCN(C)C`, the GLU level was 12.5 ± 0.663 mmol/L (BALB/c nude mouse, LU0387 xenograft, serum; oral, 40 mg/kg).
`CCOC(=O)N1C[C@@H](c2ccc(C(C)(C)C)cc2)N[C@@H](c2nc3ccccc3n2C)C1` gave a logD of > 4.7 (shake-flask, 1-octanol/buffer; pH 7.4).
Under “absorption lag time”, `Cn1cnc2c(F)c(Nc3ccc(Br)cc3Cl)c(C(=O)NOCCO)cc21` is recorded as 0.28 h (population PK model; human, plasma; oral, sequential zero-first-order absorption, fasted).
Under “enthalpy of phase change”, `C[Si]1(C)O[Si](C)(C)O[Si](C)(C)O[Si](C)(C)O[Si](C)(C)O1` is recorded as 29.6 kcal/mol (air/water; concentration not given).
`CCOC(=O)[C@H](CCc1ccccc1)N[C@@H](C)C(=O)N1[C@H](C(=O)O)C[C@H]2CCCC[C@@H]21` gave a freeze-thaw stability of 110 ± 10.6% (human plasma; 30 pg/mL, 3 cycles at -20 °C; reference: nominal).
`Fc1ccc(-c2nc(-c3ccc4ccccc4c3F)[nH]c2-c2ccncc2)cc1` gave a membrane retention of 87.5 ± 1.8% (PAMPA; 16 h).
`C[C@@H](O)CCOC(=O)C[C@@H](C)O`: “diastolic blood pressure” 63 mmHg (human; oral drink, dose not given, 120 min post dose, mean).
Under “absorption duration (D1)”, `Cc1cn(-c2cc(NC(=O)c3ccc(C)c(Nc4nccc(-c5cccnc5)n4)c3)cc(C(F)(F)F)c2)cn1` is recorded as 2.32 h (human, both sexes, plasma; oral, population PK model, typical value).
`NC1(C(=O)N[C@@H](CCO)c2ccc(Cl)cc2)CCN(c2nc[nH]c3nccc2-3)CC1`: “incidence of Anaemia” 20% (metastatic CRPC patients; 480 mg b.i.d., any grade, treatment-related, with: enzalutamide 160 mg daily).
`C[C@H]1CN(c2cccc(-c3ccc4ncnc(Nc5ncco5)c4c3)c2)CCO1` has a CLint of 35 µL/min/mg (human liver microsomes).
`O=C(N[C@H](Cc1c[nH]c2ccccc12)C(=O)Nc1ccncc1)c1ccc(-c2ccc(F)c(Cl)c2)cc1F` gave a concentration of 5.9 µM (Swiss Webster mouse, female, fat; oral, 50 mg/kg, 2 h, 20% Kolliphor vehicle).
With `Cc1ncc(CO)c(C(=O)O)c1O` the renal clearance was 49.9 ± 20.2 mL/min/kg (rat).
`CC#CC(=O)N1CCC[C@H]1c1nc(-c2ccc(C(=O)Nc3ccccn3)cc2)c2c(N)nccn12`: “GSH adduct formation” 94% (PBS; 100 µM, 23 h, pH 7.45, 37 °C, with: GSH 5 mM).
`CCN1/C(=C/C(C)=O)Sc2ccc(F)cc21`: “systolic blood pressure” 111 ± 8 mmHg (cynomolgus monkey; oral, 30 mg/kg, 4 h post-dose).
For `COc1ccc2c(=O)n(C)c(-c3ccccc3)nc2c1`, the tissue/plasma ratio was 7.37 (Sprague-Dawley rat, male, abdominal fat; oral, 30 mg/kg, 0.25 h; reference: abdominal fat over plasma).
Under “Hypokalaemia dose reduction/interruption”, `CNC(=O)c1ccc(-c2cnc3ncc(Cc4ccc5ncccc5c4)n3n2)cc1F` is recorded as 1% (Japanese patients; oral, 400 mg, grade 3/4).
`Cc1cc(NC2CCN(C(=O)OC3CCN(C(=O)/C=C/CN(C)C)C3)CC2)n2ncc(C(C)C)c2n1` (stereo not drawn) — result for “patients with Diarrhea”: 5% (patients with advanced solid tumours; dose not given, QD arm, grade 3 or higher).
`Cc1nc(-c2cnc(NC(C)C)n(C)c2=O)ccc1Oc1ccnc(-c2cnn(C)c2)c1` has a Vz of 1.02 L/kg (rat (Sprague-Dawley, male), plasma; oral, 10 mg/kg).
`O=C(Nc1nc2cccc(-c3ccc(CN4CCS(=O)(=O)CC4)cc3)n2n1)C1CC1`: “treatment-emergent adverse events” 4.5% (measured: gingival bleeding; human rheumatoid arthritis patients; oral, 75 mg once daily, 4 weeks, regardless of relatedness).
For `CN(C(=O)C(C)(C)c1cc(C(F)(F)F)cc(C(F)(F)F)c1)c1cnc(N2C[C@H]3COCCN3C[C@H]2CO)cc1-c1ccc(F)cc1[14CH3]`, “last quantifiable time” read 96 to 240 h (measured: total radioactivity; human, male, plasma; oral, 120 mg).
Under “numerical aberration cells”, `c1csc(CNc2cc[nH]n2)c1` is recorded as 0.5% (human peripheral blood lymphocytes; 1130 µg/mL, 4 h).
The MRT total of `Cc1c(C(=O)O)ccc2c3n(nc12)[C@@H]1[C@H](C3)N(CC2CC2)[C@@]2(C(=O)Nc3cc(Cl)ccc32)[C@H]1c1cccc(Cl)c1F` is reported as 19.6 h (Göttingen minipig, female, plasma; oral, 2 mg/kg).
